Published values of several laboratories.
Each numbered part is a random draw from the data of one study; scales do not carry over between parts. Changes are numbered by the printed parent chain.
Sequence of UniProt P32298 (whole entry, looked up): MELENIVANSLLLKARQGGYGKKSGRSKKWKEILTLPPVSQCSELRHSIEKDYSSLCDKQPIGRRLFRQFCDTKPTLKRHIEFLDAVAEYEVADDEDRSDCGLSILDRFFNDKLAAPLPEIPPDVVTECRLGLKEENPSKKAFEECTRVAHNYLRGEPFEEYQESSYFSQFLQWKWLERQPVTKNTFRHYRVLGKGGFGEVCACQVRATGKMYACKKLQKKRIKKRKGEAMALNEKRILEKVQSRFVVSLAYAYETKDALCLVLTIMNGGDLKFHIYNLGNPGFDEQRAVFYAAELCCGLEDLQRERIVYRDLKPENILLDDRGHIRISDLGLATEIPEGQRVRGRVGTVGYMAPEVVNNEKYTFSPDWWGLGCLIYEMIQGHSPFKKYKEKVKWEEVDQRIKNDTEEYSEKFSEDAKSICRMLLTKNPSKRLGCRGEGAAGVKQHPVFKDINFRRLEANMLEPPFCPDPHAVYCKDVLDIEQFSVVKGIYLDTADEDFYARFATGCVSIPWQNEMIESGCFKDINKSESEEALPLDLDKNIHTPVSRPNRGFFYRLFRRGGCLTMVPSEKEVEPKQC
Sequence of UniProt P07949 (whole entry, unmodified, looked up): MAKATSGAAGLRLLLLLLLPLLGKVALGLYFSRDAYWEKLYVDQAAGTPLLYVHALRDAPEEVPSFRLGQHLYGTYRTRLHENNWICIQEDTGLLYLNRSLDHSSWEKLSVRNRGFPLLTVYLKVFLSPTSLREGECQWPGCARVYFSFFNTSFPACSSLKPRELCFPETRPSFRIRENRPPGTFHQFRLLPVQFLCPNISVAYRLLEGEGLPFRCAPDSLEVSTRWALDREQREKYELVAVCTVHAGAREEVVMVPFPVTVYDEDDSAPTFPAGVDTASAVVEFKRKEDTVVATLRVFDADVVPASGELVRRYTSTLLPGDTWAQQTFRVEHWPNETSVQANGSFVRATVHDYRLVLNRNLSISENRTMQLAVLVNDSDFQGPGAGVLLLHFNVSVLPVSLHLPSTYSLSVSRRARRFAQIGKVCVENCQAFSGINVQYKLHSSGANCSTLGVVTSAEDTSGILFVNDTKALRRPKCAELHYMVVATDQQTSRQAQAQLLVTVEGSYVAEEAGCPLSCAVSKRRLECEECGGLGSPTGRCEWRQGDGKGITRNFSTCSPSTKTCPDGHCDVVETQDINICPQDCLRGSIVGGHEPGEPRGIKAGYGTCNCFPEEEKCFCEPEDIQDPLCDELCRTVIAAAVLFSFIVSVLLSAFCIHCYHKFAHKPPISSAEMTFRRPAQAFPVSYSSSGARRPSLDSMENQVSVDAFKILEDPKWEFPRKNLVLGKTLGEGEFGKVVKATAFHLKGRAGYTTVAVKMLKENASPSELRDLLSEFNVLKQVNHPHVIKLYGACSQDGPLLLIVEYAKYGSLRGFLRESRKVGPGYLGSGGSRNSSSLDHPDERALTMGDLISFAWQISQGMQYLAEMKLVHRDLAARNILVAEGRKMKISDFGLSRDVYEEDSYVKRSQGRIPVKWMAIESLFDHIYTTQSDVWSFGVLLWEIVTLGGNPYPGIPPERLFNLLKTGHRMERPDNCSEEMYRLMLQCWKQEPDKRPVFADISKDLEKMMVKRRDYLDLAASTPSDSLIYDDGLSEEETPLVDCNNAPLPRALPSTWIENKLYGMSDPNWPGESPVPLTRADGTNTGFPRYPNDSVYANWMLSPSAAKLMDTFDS
Sequence of UniProt Q6ZWH5 (whole entry, looked up): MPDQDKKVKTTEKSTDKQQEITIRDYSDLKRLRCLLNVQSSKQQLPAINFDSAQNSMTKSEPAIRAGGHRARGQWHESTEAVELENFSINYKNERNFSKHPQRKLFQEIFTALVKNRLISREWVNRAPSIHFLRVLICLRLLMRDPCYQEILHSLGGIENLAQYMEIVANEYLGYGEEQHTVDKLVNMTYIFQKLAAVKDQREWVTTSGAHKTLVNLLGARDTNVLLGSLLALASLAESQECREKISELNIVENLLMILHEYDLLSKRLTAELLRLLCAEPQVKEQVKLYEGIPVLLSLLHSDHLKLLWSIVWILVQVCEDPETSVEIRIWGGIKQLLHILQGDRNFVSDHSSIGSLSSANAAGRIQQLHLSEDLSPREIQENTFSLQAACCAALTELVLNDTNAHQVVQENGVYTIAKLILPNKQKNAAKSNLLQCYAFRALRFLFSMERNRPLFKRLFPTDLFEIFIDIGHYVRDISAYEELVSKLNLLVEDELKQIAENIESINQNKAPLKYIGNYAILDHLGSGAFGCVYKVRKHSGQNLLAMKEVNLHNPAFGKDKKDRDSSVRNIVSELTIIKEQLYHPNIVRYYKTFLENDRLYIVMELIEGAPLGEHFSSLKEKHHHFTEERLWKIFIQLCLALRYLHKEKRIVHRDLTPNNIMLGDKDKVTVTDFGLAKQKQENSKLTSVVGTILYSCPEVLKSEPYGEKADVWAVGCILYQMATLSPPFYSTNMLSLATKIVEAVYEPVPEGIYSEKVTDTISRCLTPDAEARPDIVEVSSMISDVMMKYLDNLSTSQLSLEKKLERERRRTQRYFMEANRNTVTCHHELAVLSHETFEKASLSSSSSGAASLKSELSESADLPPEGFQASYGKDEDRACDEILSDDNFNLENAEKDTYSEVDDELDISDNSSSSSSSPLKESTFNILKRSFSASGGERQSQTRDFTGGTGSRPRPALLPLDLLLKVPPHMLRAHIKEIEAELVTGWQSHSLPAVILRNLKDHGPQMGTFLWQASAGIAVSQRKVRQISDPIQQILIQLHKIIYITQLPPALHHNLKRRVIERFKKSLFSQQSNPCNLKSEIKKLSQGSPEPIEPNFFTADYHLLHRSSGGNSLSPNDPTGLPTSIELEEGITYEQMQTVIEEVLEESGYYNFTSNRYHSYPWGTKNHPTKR
Sequence of UniProt Q9Y2U5 (whole entry, looked up): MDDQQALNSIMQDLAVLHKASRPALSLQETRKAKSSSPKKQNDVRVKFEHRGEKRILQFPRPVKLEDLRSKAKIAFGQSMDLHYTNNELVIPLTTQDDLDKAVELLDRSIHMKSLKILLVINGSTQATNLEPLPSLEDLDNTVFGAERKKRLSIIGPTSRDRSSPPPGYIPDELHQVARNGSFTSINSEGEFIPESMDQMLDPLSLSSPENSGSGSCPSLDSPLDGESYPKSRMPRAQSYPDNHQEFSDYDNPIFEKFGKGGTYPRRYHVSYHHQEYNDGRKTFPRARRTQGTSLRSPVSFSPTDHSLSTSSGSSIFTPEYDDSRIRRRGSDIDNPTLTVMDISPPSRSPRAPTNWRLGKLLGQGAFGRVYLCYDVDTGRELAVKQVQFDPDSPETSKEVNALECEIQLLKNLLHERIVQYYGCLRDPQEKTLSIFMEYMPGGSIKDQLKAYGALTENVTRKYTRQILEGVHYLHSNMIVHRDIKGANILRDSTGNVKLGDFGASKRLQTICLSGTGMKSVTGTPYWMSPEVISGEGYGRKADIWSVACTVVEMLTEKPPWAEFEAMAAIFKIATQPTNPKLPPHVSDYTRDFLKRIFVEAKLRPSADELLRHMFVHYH
Sequence of UniProt P07333 (whole entry, looked up): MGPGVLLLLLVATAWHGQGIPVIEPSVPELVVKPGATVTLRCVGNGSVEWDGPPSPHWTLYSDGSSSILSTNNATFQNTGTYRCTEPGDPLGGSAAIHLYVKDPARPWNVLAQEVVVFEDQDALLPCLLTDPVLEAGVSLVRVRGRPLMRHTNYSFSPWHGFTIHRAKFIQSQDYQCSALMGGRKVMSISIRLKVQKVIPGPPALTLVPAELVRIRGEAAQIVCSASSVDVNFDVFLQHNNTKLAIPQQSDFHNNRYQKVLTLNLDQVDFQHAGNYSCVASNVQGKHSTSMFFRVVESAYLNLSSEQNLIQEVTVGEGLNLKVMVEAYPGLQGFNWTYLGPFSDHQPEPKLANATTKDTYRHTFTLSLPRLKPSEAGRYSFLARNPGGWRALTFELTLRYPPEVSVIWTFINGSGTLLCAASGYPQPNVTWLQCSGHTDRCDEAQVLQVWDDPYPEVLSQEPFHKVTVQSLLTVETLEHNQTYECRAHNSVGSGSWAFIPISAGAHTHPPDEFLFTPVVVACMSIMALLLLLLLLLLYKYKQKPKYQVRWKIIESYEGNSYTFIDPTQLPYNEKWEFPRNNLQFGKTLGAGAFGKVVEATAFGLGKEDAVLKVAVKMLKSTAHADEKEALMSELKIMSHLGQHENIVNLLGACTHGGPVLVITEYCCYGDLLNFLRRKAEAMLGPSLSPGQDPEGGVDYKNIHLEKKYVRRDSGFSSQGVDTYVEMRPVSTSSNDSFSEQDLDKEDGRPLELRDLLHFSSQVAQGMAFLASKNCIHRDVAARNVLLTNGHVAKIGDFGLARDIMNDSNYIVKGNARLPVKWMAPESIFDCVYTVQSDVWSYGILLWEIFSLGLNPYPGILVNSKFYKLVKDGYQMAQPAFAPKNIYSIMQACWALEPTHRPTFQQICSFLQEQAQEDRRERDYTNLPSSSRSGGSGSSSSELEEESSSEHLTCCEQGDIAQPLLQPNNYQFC
Sequence of UniProt Q8NI60 (whole entry, looked up): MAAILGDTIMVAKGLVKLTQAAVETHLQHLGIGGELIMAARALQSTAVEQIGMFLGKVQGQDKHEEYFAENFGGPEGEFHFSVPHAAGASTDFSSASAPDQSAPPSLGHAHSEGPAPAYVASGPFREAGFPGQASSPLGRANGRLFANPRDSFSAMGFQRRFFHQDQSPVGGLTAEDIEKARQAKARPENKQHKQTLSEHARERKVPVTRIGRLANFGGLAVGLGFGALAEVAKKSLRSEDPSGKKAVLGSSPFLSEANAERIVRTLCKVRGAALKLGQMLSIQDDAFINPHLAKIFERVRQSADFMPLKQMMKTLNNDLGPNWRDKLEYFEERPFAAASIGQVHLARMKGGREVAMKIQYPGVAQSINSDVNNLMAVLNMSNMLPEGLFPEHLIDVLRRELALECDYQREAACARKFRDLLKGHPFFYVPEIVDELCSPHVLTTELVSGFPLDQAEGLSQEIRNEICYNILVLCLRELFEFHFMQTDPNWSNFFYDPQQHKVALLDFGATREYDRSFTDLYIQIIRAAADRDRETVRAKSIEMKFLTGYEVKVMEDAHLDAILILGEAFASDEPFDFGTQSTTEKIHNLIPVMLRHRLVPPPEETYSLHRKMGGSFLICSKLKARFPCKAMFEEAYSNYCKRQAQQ

Block 1
Target: ATF5, bZIP domain (human)
Method: DHFR protein complementation
Sample: yeast
Setting: single substitutions, most at no-binding floor
Reference: wild-type JUN-FOS pair
Reading: higher = stronger binding
Endpoint: binding fitness
Starting sequence: JUN, bZIP domain (human); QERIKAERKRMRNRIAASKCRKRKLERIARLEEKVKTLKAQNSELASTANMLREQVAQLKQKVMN; partner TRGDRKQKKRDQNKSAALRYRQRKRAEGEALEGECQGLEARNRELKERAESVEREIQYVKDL
Variant = T48R; value = -1.46 natural log
Variant = S43P; value = -1.5 natural log
Variant = L52Q; value = -1.56 natural log
Variant = E33K; value = -1.45 natural log
Variant = L38N; value = -1.49 natural log
Variant = T37R; value = -1.52 natural log
Variant = S47E; value = -1.36 natural log
Variant = Q55P; value = -1.52 natural log

Block 2
SMILES: Cn1nc(C(=O)NCc2ccc(C(=O)O)cc2)cc1-c1ccc2[nH]ccc2c1
Effect on: cell-free assay
Method: competition with immobilised ligand
Tested at: 0.1 µM
Endpoint: remaining binding
target = CSF1R (Homo sapiens, UniProt P07333); value = 100%
target = MAP3K2 (Homo sapiens, UniProt Q9Y2U5); value = 75%
target = COQ8A (Homo sapiens, UniProt Q8NI60); value = 100%
target = PAK3 (Homo sapiens, UniProt O75914); value = 82%
target = GRK4 (Homo sapiens, UniProt P32298); value = 96%
target = Ribosomal protein S6 kinase alpha-1, C-terminal kinase domain (RPS6KA1, Homo sapiens, UniProt Q15418); value = 95%
target = ABL2 (Homo sapiens, UniProt P42684); value = 93%
target = NEK10 (Homo sapiens, UniProt Q6ZWH5); value = 58%
target = RET (Homo sapiens, UniProt P07949, M918T); value = 49%

Block 3
Target: G protein-coupled receptor kinase 4 (GRK4, Homo sapiens, UniProt P32298)
Effect on: enzyme activity
Mode: inhibitor
Tested at: 0.5 µM
Reference: control
Endpoint: remaining activity
SMILES = NCCNc1ncc(C(N)=O)c(Nc2cccc(C(F)(F)F)c2)n1; value = 85.9%
SMILES = Cc1ccc(Nc2nccc(N(C)c3ccc4c(C)n(C)nc4c3)n2)cc1S(N)(=O)=O; value = 91.7%
SMILES = O=c1c2ccccc2[nH]c(=S)n1CCN1CCC(=C(c2ccc(F)cc2)c2ccc(F)cc2)CC1; value = 107%
SMILES = CNC(=O)c1cc(Oc2ccc(NC(=O)Nc3ccc(Cl)c(C(F)(F)F)c3)cc2)ccn1; value = 103%
SMILES = O=C1NC(=O)C(c2cn(CCCn3ccnc3)c3ccccc23)=C1Nc1ccccc1; value = 91.6%
SMILES = COc1cc2nccc(Oc3ccc(NC(=S)NC(=O)c4ccccc4C)cc3)c2cc1OC; value = 95.9%
SMILES = Oc1ccc(-c2nc(-c3ccncc3)c(-c3ccc(F)cc3)[nH]2)cc1; value = 98.5%
SMILES = COc1ccc(CNC(=O)Nc2ncc([N+](=O)[O-])s2)cc1; value = 92.1%
SMILES = Cn1c2ccccc2c2c3c(c4c5ccccc5n(CCC#N)c4c21)CNC3=O; value = 75.1%
SMILES = Cc1ccc(NC(=O)c2ccc(CN3CCN(C)CC3)cc2)cc1Nc1nc(-c2cccnc2)cs1; value = 108%
SMILES = N#CC(C#N)=C(N)/C(C#N)=C/c1ccc(O)cc1; value = 99.6%
SMILES = CC(C)[C@H](CO)Nc1nc(Nc2cc(N)cc(Cl)c2)c2ncn(C(C)C)c2n1; value = 103%
SMILES = C#Cc1cccc(Nc2ncnc3cc(OCCOC)c(OCCOC)cc23)c1; value = 89.6%

Block 4
Target: RNA binding protein fox-1 homolog 2, RRM domain, GST-SBP tag (RBFOX2, Homo sapiens, UniProt O43251-10, residues 100-194)
Method: RNA Bind-n-Seq
Form: RNA
Sample: in vitro
Tested at: 365 nM
Setting: natural RNA segment, single round, ends assumed
Reference: no-protein control
Reading: higher = stronger binding
Endpoint: RBNS enrichment (R)
Constant ends, left off below: GGGAGUUCUACAGUCCGACGAUC … UGGAAUUCUCGGGUGCCAA
Target sequence (chain): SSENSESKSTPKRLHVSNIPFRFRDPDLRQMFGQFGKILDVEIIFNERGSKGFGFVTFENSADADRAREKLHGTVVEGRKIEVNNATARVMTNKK
Oligonucleotide = GUGCAGUCUCCAAAGCUUGACGUUGCUAAUGACACCUGCCUCGUUGCUUUGCUUAGUUGGCAAAAGCAGGAAAAGAGGUGACAGAGAAUGUUGACUCCAAGGUCCCUAGG; value = 0.253
Oligonucleotide = GCCUAGAUCCCACUGGUAGGCCUCGUGGCUGGCAGCAGUGCUCUGGGAAUAAACAGCUGCCCUAGCCCCAGAGGGAUCCCUGCACCCAGGAGGCCUCCUGACACCAGCCA; value = 0.341
Oligonucleotide = CUUCUUUUCAGUAAAACUUUAGGAGAUGUUAUGGGGAAAGGGAGGGAACAGAAAUCCUUGAACUUUUUAUUUGGCGUGUGCCAUGUUAUGAUCAUGUACCUUUUCAAUAA; value = 0.846
Oligonucleotide = UUGAGACCUCCGGCCUUAGGAAGUUGCUUCCAUUAGGAAAUGCCUUUCUGAUCCCAGGAGCUCAGCUCGACUGUUAACAUCUGAAGCUUAUUCUCUUCCUUCCCGCUGGG; value = 0.254
Oligonucleotide = AGAAAUAUUAUCUAUUUUAUUACCUUGAAUAUUUAAUAUUUUUCACUGGGAGGUUUGAAGCUUACAAAAUGAGAAUGUGCCAUGCAUGAAGCAAAGGAUUCCAGGCUCCA; value = 20.6
Oligonucleotide = GCCCGGAAACAAAACUCAUGCUGUGCCAUCAUGUGUGCAGCCUGCCAGAGGCCCAAUGCUGGAAUGGCACCAUCAUUCACAUCAGAACUGCAGCCCCUGGAAAAGAAGAG; value = 0.598
Oligonucleotide = UAACAACUGGAGAAUGGUAUUCCAGGCCCCAAGAAACUUUGCUUAGGAUUGAUUCUGAGAUGACACUGUGUGCUGGCAAGGAGCAUUGGGGGGCACAGUUGUUGUUUGGU; value = 0.862
Oligonucleotide = GCCUAGGUGUGCUCCAGGUUGCCUGUGGGUUUCCUUUCUGUGAUGGGAUUUAGUGUAGACAUUCUUGCAAAACGGUCACUUUAAAUAAAAUGGGAAAUUGCUGCUCCAUG; value = 0.519

Repeated from above (block 1):
Variant = L38N; value = -1.49 natural log
Variant = S43P; value = -1.5 natural log
